# Results gathered from unrelated publications.
# Parts stem from different laboratories: compare values within a part only. Changes are numbered by the printed parent chain.
# Sequence of UniProt Q9ZTX8 (whole entry, looked up): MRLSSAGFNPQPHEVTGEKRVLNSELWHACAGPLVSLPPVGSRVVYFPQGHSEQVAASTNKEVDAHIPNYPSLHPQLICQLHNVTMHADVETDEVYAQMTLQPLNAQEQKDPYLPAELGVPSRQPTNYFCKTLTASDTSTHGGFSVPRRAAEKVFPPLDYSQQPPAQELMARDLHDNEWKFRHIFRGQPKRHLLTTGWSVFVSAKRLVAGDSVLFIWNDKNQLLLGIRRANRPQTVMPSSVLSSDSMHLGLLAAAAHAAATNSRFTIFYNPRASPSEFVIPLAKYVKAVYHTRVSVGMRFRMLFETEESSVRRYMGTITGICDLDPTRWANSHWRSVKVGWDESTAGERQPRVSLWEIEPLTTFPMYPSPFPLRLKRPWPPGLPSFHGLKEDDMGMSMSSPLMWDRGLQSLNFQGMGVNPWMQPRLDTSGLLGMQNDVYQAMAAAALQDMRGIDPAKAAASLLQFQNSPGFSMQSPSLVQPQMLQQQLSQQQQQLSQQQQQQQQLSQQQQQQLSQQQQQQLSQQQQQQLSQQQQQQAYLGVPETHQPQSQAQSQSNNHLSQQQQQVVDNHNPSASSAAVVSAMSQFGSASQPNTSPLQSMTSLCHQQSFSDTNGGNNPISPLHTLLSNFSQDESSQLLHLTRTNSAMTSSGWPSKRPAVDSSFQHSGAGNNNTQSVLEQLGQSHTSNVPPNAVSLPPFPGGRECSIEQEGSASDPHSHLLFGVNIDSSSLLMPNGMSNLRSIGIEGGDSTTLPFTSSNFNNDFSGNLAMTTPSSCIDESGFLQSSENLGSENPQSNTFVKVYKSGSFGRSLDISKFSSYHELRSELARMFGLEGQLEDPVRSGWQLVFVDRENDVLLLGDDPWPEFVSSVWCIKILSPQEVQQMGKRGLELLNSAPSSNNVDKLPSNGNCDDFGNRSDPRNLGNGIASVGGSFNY
# Sequence of UniProt Q9FX25 (whole entry, looked up): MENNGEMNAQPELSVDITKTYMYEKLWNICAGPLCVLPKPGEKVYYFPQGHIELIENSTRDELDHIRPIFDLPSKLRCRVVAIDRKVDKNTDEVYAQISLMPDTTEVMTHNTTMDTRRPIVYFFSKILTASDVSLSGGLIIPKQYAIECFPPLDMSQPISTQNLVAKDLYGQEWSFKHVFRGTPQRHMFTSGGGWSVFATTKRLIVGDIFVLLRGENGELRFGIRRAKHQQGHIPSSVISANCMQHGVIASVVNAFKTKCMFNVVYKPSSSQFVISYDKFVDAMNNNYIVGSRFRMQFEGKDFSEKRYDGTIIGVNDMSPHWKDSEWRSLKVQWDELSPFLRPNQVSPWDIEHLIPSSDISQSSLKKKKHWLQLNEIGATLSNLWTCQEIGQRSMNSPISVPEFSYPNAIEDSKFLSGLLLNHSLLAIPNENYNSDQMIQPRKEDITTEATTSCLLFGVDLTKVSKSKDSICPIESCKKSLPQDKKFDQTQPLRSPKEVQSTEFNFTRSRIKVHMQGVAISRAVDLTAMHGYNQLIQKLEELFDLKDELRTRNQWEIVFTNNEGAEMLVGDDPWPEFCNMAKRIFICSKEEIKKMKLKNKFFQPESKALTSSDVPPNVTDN
# Sequence of UniProt Q38824 (whole entry, looked up): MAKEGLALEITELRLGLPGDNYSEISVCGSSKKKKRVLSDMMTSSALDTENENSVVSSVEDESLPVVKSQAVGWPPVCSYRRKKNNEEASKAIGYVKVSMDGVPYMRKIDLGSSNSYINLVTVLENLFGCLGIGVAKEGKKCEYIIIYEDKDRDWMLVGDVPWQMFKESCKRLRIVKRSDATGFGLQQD
# Sequence of UniProt Q8LAL2 (whole entry, looked up): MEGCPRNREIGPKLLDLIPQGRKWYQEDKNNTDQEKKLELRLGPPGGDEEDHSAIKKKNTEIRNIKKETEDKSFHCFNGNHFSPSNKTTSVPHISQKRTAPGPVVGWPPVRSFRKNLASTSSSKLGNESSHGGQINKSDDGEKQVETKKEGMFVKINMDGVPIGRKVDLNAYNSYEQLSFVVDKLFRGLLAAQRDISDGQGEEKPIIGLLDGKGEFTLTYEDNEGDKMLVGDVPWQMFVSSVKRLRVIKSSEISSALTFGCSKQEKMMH
# Sequence of UniProt Q38827 (whole entry, looked up): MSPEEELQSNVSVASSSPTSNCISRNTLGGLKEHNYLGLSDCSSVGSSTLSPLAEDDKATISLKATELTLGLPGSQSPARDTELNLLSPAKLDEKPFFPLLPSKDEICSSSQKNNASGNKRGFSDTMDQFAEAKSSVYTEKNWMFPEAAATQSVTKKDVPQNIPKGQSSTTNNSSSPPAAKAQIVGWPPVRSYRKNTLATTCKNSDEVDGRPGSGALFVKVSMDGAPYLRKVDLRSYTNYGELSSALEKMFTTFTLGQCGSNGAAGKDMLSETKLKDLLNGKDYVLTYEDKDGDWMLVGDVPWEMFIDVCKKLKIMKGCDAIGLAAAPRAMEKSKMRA
# Sequence of UniProt Q9M1R4 (whole entry, looked up): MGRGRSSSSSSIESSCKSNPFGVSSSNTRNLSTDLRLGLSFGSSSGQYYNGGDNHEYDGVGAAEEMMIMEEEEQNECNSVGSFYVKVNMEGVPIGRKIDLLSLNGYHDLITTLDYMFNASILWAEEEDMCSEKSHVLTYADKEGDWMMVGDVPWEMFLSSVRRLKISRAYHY
# Sequence of UniProt Q9LQE8 (whole entry, looked up): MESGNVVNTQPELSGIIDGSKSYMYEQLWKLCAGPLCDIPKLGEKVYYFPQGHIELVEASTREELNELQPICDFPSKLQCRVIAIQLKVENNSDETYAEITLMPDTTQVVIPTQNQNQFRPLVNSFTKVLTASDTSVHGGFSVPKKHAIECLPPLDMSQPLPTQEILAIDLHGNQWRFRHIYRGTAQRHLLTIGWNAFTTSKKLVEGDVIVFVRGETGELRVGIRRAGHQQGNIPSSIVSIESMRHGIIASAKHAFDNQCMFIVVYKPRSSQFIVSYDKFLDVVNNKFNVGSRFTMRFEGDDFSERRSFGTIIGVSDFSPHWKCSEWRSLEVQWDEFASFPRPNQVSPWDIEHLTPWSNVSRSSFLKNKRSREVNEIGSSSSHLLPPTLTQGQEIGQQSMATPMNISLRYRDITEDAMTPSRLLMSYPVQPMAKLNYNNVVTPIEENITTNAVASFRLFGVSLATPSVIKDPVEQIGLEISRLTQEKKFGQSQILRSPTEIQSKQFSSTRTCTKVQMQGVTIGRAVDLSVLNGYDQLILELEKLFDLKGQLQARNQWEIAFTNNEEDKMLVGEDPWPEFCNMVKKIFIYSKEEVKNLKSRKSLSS
# Sequence of UniProt O24410 (whole entry, looked up): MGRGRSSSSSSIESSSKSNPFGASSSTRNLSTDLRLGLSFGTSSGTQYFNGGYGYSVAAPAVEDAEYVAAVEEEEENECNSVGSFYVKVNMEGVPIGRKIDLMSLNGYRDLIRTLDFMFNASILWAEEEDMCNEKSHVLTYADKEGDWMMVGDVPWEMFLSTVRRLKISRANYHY
# Sequence of UniProt Q8RYC6 (whole entry, looked up): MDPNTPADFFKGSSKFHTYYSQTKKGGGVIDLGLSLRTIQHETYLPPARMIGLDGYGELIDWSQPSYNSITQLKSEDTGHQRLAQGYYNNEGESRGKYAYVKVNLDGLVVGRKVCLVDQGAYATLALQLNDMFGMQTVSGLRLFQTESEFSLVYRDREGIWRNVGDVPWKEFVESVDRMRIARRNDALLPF

# Study 1
# Molecule: B1 (IAA5)
# Method: two-hybrid
# Direction: higher = firmer interaction
# B1: IAA5 (Arabidopsis thaliana, UniProt P33078); chain MANESNNLGLEITELRLGLPGDIVVSGESISGKKRASPEVEIDLKCEPAKKSQVVGWPPVCSYRRKNSLERTKSSYVKVSVDGAAFLRKIDLEMYKCYQDLASALQILFGCYINFDDTLKESECVPIYEDKDGDWMLAGDVPWEMFLGSCKRLRIMKRSCNRG
partner,notes,relative to,positive tests
"IAA32 (Arabidopsis thaliana, UniProt Q8RYC6)",,out of 4 tests,2
"ARF6 790-935 (Arabidopsis thaliana, UniProt Q9ZTX8)",,out of 2 tests,1
"ARF13 (Arabidopsis thaliana, UniProt Q9FX25)",,out of 4 tests,0
"ARF14 497-605 (Arabidopsis thaliana, UniProt Q9LQE8)",,out of 4 tests,2
"IAA9 (Arabidopsis thaliana, UniProt Q38827)",,out of 4 tests,4
"IAA6 (Arabidopsis thaliana, UniProt Q38824)",,out of 4 tests,0
"IAA30 (Arabidopsis thaliana, UniProt Q9M1R4)",weak activation fusion,out of 4 tests,2
"IAA20 (Arabidopsis thaliana, UniProt O24410)",weak activation fusion,out of 4 tests,2
"IAA26 (Arabidopsis thaliana, UniProt Q8LAL2)",,out of 4 tests,1

# Study 2
# Target: Histone acetyltransferase KAT6A, both winged helices, GST fusion (KAT6A, Homo sapiens, UniProt Q92794, residues 1-181)
# Method: protein binding microarray
# Molecule type: double-stranded DNA, one strand shown
# Sample: in vitro
# Tested at: not given
# Notes: 8-mer, flanks averaged, mean of 2 arrays, mostly near background
# Relative to: not given
# Direction: higher = stronger binding
# Target sequence (chain): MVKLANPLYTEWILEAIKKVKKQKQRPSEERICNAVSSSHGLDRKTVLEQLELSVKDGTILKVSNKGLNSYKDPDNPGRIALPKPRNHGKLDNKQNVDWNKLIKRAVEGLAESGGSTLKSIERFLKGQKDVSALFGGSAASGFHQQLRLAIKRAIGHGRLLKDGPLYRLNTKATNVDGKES
Strand,E-score
CATTCTAC,-0.163
CTTACCTC,-0.261
GTTCTCAA,-0.0821
AGCTTCCC,-0.0054
GAATCACC,-0.143
CTATTGGA,-0.0818
AAGTGGCA,-0.174
AATCTCCG,0.123
ACCCTCCG,0.101
ACAGCGGG,0.145
GGAGGGAA,-0.112
AATGTCTG,-0.0757
AATAAGAC,-0.198
GCAATTCC,0.037
AACTACGC,0.161
CATAAATA,-0.0899
CTTCCCAA,-0.208
GCGCGACA,0.295
AAACTGGT,-0.0376
ACCTCCGA,-0.103
CTCACGCC,0.18
AAGTGCAC,-0.0508
AGTAGCAC,-0.107
GCGGGATA,0.315
GAACCCGA,0.136

# Study 3
# Target: CEBPE, bZIP domain (human)
# Method: DHFR protein complementation
# Sample: yeast
# Notes: single substitutions, most at no-binding floor
# Relative to: wild-type JUN-FOS pair
# Direction: higher = stronger binding
# Starting sequence: JUN, bZIP domain (human); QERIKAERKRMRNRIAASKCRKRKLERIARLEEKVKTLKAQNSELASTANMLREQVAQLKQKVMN; partner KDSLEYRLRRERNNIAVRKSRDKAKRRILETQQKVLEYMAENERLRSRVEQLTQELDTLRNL
Variant,binding fitness
E33M,-1.32 natural log
A46W,-1.25 natural log
T48R,-0.807 natural log
Q55A,-1.24 natural log
K34L,-1.1 natural log
V35W,-1.32 natural log
K34S,-1.3 natural log
M51K,-0.961 natural log
Q41T,-1.3 natural log
K39M,-1.16 natural log
N42H,-1.33 natural log
E32W,-1.5 natural log
E54K,-1.35 natural log
A49C,-1.13 natural log
A40S,-1.11 natural log
A49E,-0.95 natural log
A57L,-1.18 natural log
E44M,-1.25 natural log
L31C,-1.34 natural log
A49W,-1.33 natural log
E33R,-1.22 natural log
E33T,-1.28 natural log
A49V,-1.04 natural log
I28L,-0.811 natural log
E54I,-1.21 natural log

# Study 4
# Target: Interferon regulatory factor 5, full length, phosphomimetic (IRF5, Homo sapiens, UniProt Q13568-2, residues 1-514, S451D/S453D/S456D/S462D)
# Method: protein-binding microarray
# Molecule type: double-stranded DNA, one strand shown
# Sample: in vitro
# Tested at: 940 nM top
# Notes: 60-bp whole probe
# Added: salmon DNA 0.4 mg/ml
# Relative to: random background probes
# Direction: higher = stronger binding
# Shared flanks, not repeated: GCCTAGCAC … GTCTTGATTCGCTTGACGCTGCTG
Strand,fitted relative affinity
GCTAGTATGTTCCTTATTTAAGTGCTA,0.647 z-score
TTCTTGCGGAGTTTCTTGCAGTGCTAG,0.112 z-score
GACGGACTGGACTATCGGGACGTGCTA,-0.424 z-score
GACGGAATCGACTATCGGGACGTGCTA,-0.108 z-score
GACGGTATCCTACTGGTGACGTGCTAG,-0.277 z-score
ACAAGTTTCTCCTTTGTAAAGTGCTAG,3.32 z-score
TTAGGTTTCGGTCTCGGTTGGTGCTAG,15.5 z-score
TCCACTTTCTTTTGCTTGTTGTGCTAG,2.35 z-score
TTAGTTATCGACTATCGGTTAGTGCTA,0.83 z-score
CTAGAACTGGGGTTTCGATTAGTGCTA,4.9 z-score
GACGGTTTCGACACTGGGGGCGTGCTA,9.28 z-score
ATCTTCATGAAATTTTAATAAGTGCTA,-0.178 z-score
TTAGGTTCCGGTTTTGGTTAGTGCTAG,4.08 z-score
ATTTTTTTATCAATCATTTTGTGCTAG,0.922 z-score
TCAGTTTCCCCTATTTAACTGTGCTAG,3.22 z-score
GACGGTCTCCTTCTCGTGACGTGCTAG,0.373 z-score
TCAGGTAGCCTTATCCCTAAGTGCTAG,-0.308 z-score
GACGCTATCGGACTGGGGACGTGCTAG,-0.23 z-score
GACGGACAGGACTTTCGGGACGTGCTA,0.711 z-score
TCACTTTCCACTTGTCTTACTGTGCTA,2.2 z-score
TTAGGTTTCGATACTGGGTTAGTGCTA,12.7 z-score
TTAGGTATCCTTCCCCTTTAGTGCTAG,0.716 z-score
TCATAGGTTTCACTTTCCACTGTGCTA,6.1 z-score
GACGATTTCGGCTATCGAGACGTGCTA,0.65 z-score
TCAACTCTCTAATTTTGAGAGTGCTAG,0.229 z-score

# Study 5
# Target: Transcription factor Sp1 (SP1, Homo sapiens, UniProt P08047, residues 1-785, full length assumed)
# Sequence of UniProt P08047 (whole entry, looked up): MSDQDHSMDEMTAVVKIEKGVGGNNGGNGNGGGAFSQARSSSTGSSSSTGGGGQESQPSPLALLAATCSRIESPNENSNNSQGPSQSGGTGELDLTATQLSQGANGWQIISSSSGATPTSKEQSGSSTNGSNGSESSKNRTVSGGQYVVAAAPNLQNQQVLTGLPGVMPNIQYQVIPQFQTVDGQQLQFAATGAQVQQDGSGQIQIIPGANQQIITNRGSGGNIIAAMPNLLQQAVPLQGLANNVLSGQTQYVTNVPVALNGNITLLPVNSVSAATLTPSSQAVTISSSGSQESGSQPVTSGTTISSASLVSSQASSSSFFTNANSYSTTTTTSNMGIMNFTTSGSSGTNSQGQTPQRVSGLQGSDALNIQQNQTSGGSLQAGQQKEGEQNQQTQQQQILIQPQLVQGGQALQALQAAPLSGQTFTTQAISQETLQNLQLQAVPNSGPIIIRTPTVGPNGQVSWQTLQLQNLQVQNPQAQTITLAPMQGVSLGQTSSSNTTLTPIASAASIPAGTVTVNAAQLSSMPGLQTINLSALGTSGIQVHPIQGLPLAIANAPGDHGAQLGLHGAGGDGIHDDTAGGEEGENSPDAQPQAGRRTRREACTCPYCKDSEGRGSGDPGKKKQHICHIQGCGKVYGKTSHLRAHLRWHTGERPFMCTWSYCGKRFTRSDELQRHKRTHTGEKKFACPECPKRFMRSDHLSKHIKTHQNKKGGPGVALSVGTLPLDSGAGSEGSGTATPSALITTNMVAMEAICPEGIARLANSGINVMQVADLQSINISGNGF
# Method: protein-binding microarray
# Molecule type: double-stranded DNA, one strand shown
# Sample: in vitro
# Tested at: not given
# Notes: k-mer, scored over probes, only values ≥0.25
# Direction: higher = stronger binding
Strand,E-score
CAACGTTG,0.268
CGCCCCGC,0.273
CCTATGCA,0.29
TATTCACA,0.252
CTCCACCC,0.341
ATTGACCA,0.267
GTGGGGAA,0.371
TACCCCTA,0.315
AAGGGGCT,0.332
GGGTGGAC,0.255
CGTATACG,0.334
AAGGGAGG,0.333
AGGGGGTG,0.399
GGCGGGGA,0.475
ACGCCCCC,0.49
ACCGCCCC,0.484
CTCCCCTA,0.331
GGCGTATA,0.261
CTATGCAA,0.277
CCTCCCCC,0.363
AATGGGGT,0.265
AGATACAC,0.304
ACTACACA,0.264
CCACCCTA,0.388
TAATACTA,0.27

# Study 6
# Target: CCND1, cyclin fold, Cln2 fusion (human)
# Method: yeast growth competition, sequencing
# Sample: yeast
# Notes: weak parent motif
# Relative to: not given
# Direction: higher = stronger binding
# Starting sequence: SLBP docking peptide (human); ARYKRKLLINDFG
Variant,normalised enrichment score
N10F,0.674
D11L,0.946
D11N,-0.242
N10W,0.745
L7G,-0.219
R5A L7A,-0.164
F12G,-0.101
D11F,0.294
G13K,0.136
L7S,-0.167
L8W,0.584
R2G,0.444
A1W,-0.108
K6T,-0.0191
R2S,-0.402
L8G,0.192
A1L,-0.332
I9Q,-0.548
F12Y,0.535
K4Q,0.283
L7H,-0.697
K6W,0.947
N10L,0.937
K4Y,-0.226
R2K,0.363

# Single results of other studies
Molecule,target,test,test system,setting,scale,measurement,value
"PhoQ, residues 284 288 289 292 302 303 HSYLQF","PhoP, residues 12 14 15 18 19 SEGLL (Escherichia coli, UniProt P23836)","Sort-seq, measured: YFP reporter",E. coli,"PhoQ-PhoP variant library, added: 10 µM Mg2+","relative to: high Mg2+ state, higher = stronger signaling",fold induction,12

# Some of these lines once more (study 6):
Variant,normalised enrichment score
R2S,-0.402
A1W,-0.108
K4Y,-0.226
D11F,0.294
R5A L7A,-0.164
L7H,-0.697
R2K,0.363
G13K,0.136
K4Q,0.283
F12Y,0.535
R2G,0.444
K6W,0.947
F12G,-0.101
A1L,-0.332
N10W,0.745
I9Q,-0.548
